Experimental data collected from several papers.
Parts stem from different laboratories: compare values within a part only. Substitutions count along the parent as printed.

Set 1 — technique: protein binding microarray; molecule type: double-stranded DNA, one strand shown; matrix: in vitro; concentration: not given; relative to: not given; direction: higher = stronger binding
Target: Histone acetyltransferase KAT6A, both winged helices, GST fusion (KAT6A, Homo sapiens, UniProt Q92794, residues 1-181)
Setting: 8-mer, flanks averaged, mean of 2 arrays, mostly near background
Residues (chain): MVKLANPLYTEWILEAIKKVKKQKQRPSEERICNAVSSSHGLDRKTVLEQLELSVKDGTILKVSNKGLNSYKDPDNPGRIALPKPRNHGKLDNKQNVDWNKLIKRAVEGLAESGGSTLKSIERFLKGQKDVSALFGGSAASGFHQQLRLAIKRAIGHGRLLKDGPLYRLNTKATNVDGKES
| Oligonucleotide | E-score |
| --- | --- |
| CTAATAGA | -0.155 |
| CACCAGTC | -0.0479 |
| GAGTTTCC | 0.0765 |
| CGTCAGGA | -0.0805 |
| ATTACGAG | -0.0966 |
| GAGCTACC | -0.033 |
| AAAAATAG | -0.0506 |
| CGGAATTC | 0.0553 |
| ACGGTCCT | -0.0943 |
| ACGTGGTG | -0.0398 |
| AAGGTACG | 0.0551 |
| ATGCGATC | 0.0642 |

Set 2 — technique: Sort-seq; item: YFP reporter; matrix: E. coli; setting: PhoQ-PhoP variant library; added: 10 µM Mg2+; relative to: high Mg2+ state; direction: higher = stronger signaling
Molecule: PhoQ, residues 284 288 289 292 302 303 NLALSC
| target | fold induction |
| --- | --- |
| PhoP, residues 12 14 15 18 19 SHWTV (Escherichia coli, UniProt P23836) | 0.719 |
| PhoP, residues 12 14 15 18 19 QYCSL (Escherichia coli, UniProt P23836) | 1.68 |
| PhoP, residues 12 14 15 18 19 STHWV (Escherichia coli, UniProt P23836) | 1.28 |

Set 3 — technique: RNA Bind-n-Seq; molecule type: RNA; matrix: in vitro; concentration: 1 µM; setting: whole 134-nt RNA, ends assumed; added: 150 mM KCl; relative to: input library; direction: higher = stronger binding
Target: Ras GTPase-activating protein-binding protein 1, C-terminal RGG region (G3BP1, Homo sapiens, UniProt Q13283)
Chain of UniProt Q13283 (whole entry, looked up): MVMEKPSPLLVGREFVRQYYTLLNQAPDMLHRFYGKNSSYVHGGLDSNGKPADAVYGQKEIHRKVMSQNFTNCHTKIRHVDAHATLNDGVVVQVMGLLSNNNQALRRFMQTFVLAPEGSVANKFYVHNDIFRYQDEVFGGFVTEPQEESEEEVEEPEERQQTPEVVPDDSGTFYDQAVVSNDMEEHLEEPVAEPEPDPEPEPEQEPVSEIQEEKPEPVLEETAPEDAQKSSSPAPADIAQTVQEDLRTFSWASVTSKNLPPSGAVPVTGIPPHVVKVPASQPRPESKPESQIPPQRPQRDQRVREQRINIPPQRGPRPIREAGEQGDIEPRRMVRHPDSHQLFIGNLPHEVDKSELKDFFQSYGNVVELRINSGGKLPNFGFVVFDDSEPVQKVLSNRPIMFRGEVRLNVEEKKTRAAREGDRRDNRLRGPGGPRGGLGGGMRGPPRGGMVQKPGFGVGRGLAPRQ
Shared flanks, not repeated: GGGAGUUCUACAGUCCGACGAUC … UGGAAUUCUCGGGUGUCAAGG
| Oligonucleotide | log2 enrichment |
| --- | --- |
| UCCUGUGCUACACAUCGUAUGUACCGAAUCGGGGAAAAAGGGGAAAGGGGUUUUUGGGGAAAGUAUUAUGUUACGCCGUUCGGAUCUGCA | 2.36 |
| CACAGACAACACGCACCCACACCGACACAGAGGGAAGGGGUUGGGAUGGGGACAGGGUGCACAGCAGGGCGGGGUAGGACCCCAGCCCCU | -0.59 |
| UCCUGUGCUACACAUCGUAUGUACCGAAUCAAACCCCCAAACCCCCCCAAAUUUUUAAAAAAGUAUUAUGUUACGCCGUUCGGAUCUGCA | -0.527 |
| UCAAGUCCUGUGCUACACAUCGUAUGUACCGAAUCGGGAAAGGGUUUGGGUGGGAAAGUAUUAUGUUACGCCGUUCGGAUCUGCACUUCC | 1.78 |
| UGGCCCUGGUGGCAUGCGGGGAGGCAGAGGUGGCCUCAUGGAUCGUGGUGGUCCCGGUGGAAUGUUCAGAGGUGGCCGUGGUGGAGACAG | 2.36 |
| GUCCUGUGCUACACAUCGUAUGUACCGAAUCAAAUUUUUAAACCCAAACCCCCCCAAAAAAGUAUUAUGUUACGCCGUUCGGAUCUGCAC | -0.825 |
| UUGAUGCCCCAGAUGUGGAUGUUCAUGGCCCAGACUGGCACCUGAAGAUGCCUAAGAUGAAAAUGCCCAAGUUCAGCAUGCCUGGCUUCA | -0.436 |
| UAGCAUAUUGCCUUGUUCACUACCGAGGAGAUGAGAAGAUUAAAGGUUUCAUAUGGGAUCUCAUUACUCCAACUGAAGAUGGACAGACAC | -0.928 |
| CACAGACAACACGAACCCACACAGACACAGAGGGAAGGGGUUGGGAUGGGGACAGGGUGCACAGCAGGGCGGGGUAGGACCCCAGCCCCU | 0.361 |

Set 4 — target: CCNE2, cyclin fold, Cln2 fusion (human); technique: yeast growth competition, sequencing; matrix: yeast; setting: strong parent motif; relative to: not given; direction: higher = stronger binding
Starting sequence: CDC25A docking peptide (human); PPHRRRLLFACSP; partner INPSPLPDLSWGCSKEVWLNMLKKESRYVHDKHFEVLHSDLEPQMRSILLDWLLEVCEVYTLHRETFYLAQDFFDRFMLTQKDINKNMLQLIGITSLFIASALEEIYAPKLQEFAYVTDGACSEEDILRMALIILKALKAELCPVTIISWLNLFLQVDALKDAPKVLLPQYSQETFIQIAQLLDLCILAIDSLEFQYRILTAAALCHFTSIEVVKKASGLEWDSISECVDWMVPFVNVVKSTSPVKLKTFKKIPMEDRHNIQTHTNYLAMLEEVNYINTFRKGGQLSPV
| Substitution | normalised enrichment score |
| --- | --- |
| R4I | 2.33 |
| R4Q | 1.17 |
| A10E | 3.37 |
| P2Y | 1.49 |
| P1I | 1.71 |
| R5H | 1.33 |
| A10G | 2.47 |
| P13A | 1.94 |
| F9T | 0.819 |
| P13F | 1.21 |
| R5P | 0.446 |
| S12G | 2.24 |
| P2I | 1.52 |

Excerpt of the above (set 4):
| Substitution | normalised enrichment score |
| --- | --- |
| P2Y | 1.49 |
| P1I | 1.71 |
| R5H | 1.33 |
| A10G | 2.47 |
| P13A | 1.94 |
| F9T | 0.819 |
